Measured values collected from several papers.
Numbered parts are unrelated; each lists some results of a single study. Substitutions count along the parent as printed.

Sample 1 — technique: DHFR PCA, deep sequencing; medium: yeast; with: (+)-ABA 1.4 µM; reference: wild-type fitted maximum; reading: higher = stronger binding; measurement: relative binding score
Target: ABI1, truncated, D143A, DHFR fusion (Arabidopsis thaliana)
Notes: methotrexate growth selection, single substitutions
Starting sequence: PYL1, truncated, DHFR fusion (Arabidopsis thaliana); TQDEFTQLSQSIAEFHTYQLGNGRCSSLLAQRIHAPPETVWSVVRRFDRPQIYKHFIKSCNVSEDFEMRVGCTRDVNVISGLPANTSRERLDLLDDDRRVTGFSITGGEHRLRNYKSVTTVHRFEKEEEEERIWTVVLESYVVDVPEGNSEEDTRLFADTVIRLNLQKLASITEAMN; partner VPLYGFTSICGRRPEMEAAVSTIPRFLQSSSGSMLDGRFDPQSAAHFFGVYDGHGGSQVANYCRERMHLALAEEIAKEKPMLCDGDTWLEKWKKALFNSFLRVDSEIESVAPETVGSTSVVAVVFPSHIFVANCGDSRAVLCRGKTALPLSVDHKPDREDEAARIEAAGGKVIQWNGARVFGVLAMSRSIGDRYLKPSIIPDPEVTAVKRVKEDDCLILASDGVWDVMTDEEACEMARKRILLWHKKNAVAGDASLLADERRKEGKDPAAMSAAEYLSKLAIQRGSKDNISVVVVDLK
E64T: 48.4%
Y53D: 0.125%
R111C: 7.15%
K116V: -4.86%
Q2L: 78.8%
E131L: 59.2%
L138A: -5.85%
S63K: 60.8%
C72D: 56%
T39E: 42.3%
I172F: 1.82%
R49A: 50.9%
E131H: 77.4%
K54P: 2.36%
R24N: 20.4%
E89W: 5.89%
E174S: 7.63%
T120H: 1.17%
K54W: -7.89%

Sample 2 — technique: protein binding microarray; form: double-stranded DNA, one strand shown; medium: in vitro; concentration: not given; reference: not given; reading: higher = stronger binding; measurement: E-score
Target: Histone acetyltransferase KAT6A, winged helix 2, GST fusion (KAT6A, Homo sapiens, UniProt Q92794, residues 85-181)
Notes: 8-mer, flanks averaged, mean of 2 arrays, mostly near background
Residues (chain): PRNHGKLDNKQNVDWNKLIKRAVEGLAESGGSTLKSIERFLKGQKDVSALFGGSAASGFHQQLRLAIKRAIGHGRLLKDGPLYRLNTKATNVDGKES
ATGGGACG: -0.114
GACCTTGC: 0.0751
ATTTGCGG: 0.0912
ACGCGATC: -0.00253
GCTTAGGA: -0.0595
CGTTGGAC: -0.073
TAAGCGTA: -0.109
ACCAATGG: -0.0227
GATAACCA: -0.0998
GGAGGTCA: 0.0311
GACCAACC: 0.0771
GAGCAGGC: 0.0528
ACATTCCA: -0.0534
ACCCTTTG: -0.0348
AGTAGTGG: -0.0922
CTAGGCTA: -0.0778
ACAACTAT: -0.137
GCTTATCC: 0.0222
CCGCGTTA: 0.114
GGCAGTAC: 0.0364
ATAGAAAA: -0.0252
CGATGTCC: 0.0182
GCAGCAGA: 0.126
ACTTGGAA: 0.00519

Sample 3 — technique: RNA Bind-n-Seq; form: RNA; medium: in vitro; concentration: 365 nM; reference: no-protein control; reading: higher = stronger binding; measurement: RBNS enrichment (R)
Target: RNA binding protein fox-1 homolog 2, RRM domain, GST-SBP tag (RBFOX2, Homo sapiens, UniProt O43251-10, residues 100-194)
Notes: natural RNA segment, single round, ends assumed
Residues (chain): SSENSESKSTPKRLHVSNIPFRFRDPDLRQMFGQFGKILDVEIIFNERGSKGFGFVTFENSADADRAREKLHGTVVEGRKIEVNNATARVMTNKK
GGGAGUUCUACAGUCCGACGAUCUCUAGCUUUCUCACAGAAUGAGGACACUGGACUAAAUGAUUGCCCAGUUUCCAGCUAGUCCUAGAGUUCUAUAUUUCUACAUAGUUGAAUUAUUUUAUCAUGCGGUUGCUUGGAAUUCUCGGGUGCCAA: 0.825
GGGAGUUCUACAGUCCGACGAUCUCAGUCUGCUGUGCCUCCAGACUGCAGAGCUCUCAGAACCCAGAACAGAGACGAAAAGGCUACCUCUCCUACCCAAGUUAAGUGUUCAAAGGGGAUGUGAGGGCCUCCACUGGAAUUCUCGGGUGCCAA: 0.406
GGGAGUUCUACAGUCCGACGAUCGUGUGGGUCACUGUGAGGUGACUGCAUGGUGCCUGGCCCUGGCACAGCUGGUGACUUCCCUUGUAGAGUGUUUGCGUAGUGGAGUGGCUGUGGCUCACCACCCCCUUUCCUGGAAUUCUCGGGUGCCAA: 0.995
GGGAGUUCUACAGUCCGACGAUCGAAAGGGGAGUACUCUUGUACAGCCAGUUCUUUUAUGCAAAAAUCUAUGCAUUUUUACAAUCUUAUAUUAAACUGGUAUUUUCAAACAAUAGGAAACUUUUUUUUUUUUUUGGAAUUCUCGGGUGCCAA: 0.612
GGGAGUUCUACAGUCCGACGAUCGCCAACUCCCAGAGUUGACCUGUGUCACACCAGAUAACCAACUGCACUGCUGAAGUUUUCACAAGUGGAGUGUUGAAGGUGAAUCAGUAGUCUUUGGAGUCUACAAGUGAUGGAAUUCUCGGGUGCCAA: 0.249
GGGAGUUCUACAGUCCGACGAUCUAAACUUUCUUGCAUCAGUAUUCUAAAUUGAGCAAACUGAAAGAUUUUCAUCAGGAAAGGAGCACUGUGGGAAGAGCCCAGUAUUCACAUUUUUUCCCCAUUUUUCAGAAUGGAAUUCUCGGGUGCCAA: 0.657
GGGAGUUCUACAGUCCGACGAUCUGUCUUAAGCAACAGCCCCAAAUGCUGGCUGCCCCCAGCCAAGCAUUGGGGCCGCCAUCCUGCCUGGCACUGGCUGAUGGGCACCUCUGUUGGUUCCAUCAGCCAGAGCUUGGAAUUCUCGGGUGCCAA: 0.155
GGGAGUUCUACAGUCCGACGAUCUCUGCAAGAUUUUGUUCUUUGAAUUUCUUGAUAUUGUAAUUGAUUAUUGAUAACUGUCAUCAUGAAAUUAUCUCUCAAUAAUAAGAUAAAUAAACUAGCAUAUGAAUCAUUGGAAUUCUCGGGUGCCAA: 0.846
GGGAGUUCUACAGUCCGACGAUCGGUGGGCAUUUUAAAUAAUUAUUUAAAAGACAGGAAGUAAGCGGUACCGAGCAAUGAAACUGAAGGUACAGCACUGGGCGUCUGGGGACCCCACGCUCUCCCAACGCCCAUGGAAUUCUCGGGUGCCAA: 0.495
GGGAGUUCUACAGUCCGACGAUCUCUUGUCUAAUAUUCGUCUAUAAGGGAUUAAUUUUCAGACCCUUUAAUAAGUGAGUGCCAUAAGAAAGUCAAUAUAUAUUGUUUAAAAGAUAUUUCAGUCUAGGAAAGAUUGGAAUUCUCGGGUGCCAA: 0.676
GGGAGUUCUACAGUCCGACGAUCGGUCCUCCACCCCUCAGCGACACCCACCGCCCGAGAAACUACAGACAAUGGCCACAAGUUUGGCGUCCUUCAAUUUAAUUCUUUAAAGAAGUGCUGGGAAGAAAAAGCUAUGGAAUUCUCGGGUGCCAA: 0.465
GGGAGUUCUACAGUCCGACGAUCUGUCUGCUGUGUUUUCUUACGAAAAGAGUUUCGUUCUGCCAGUGCUGUGAGUUGGGAAUUCCUGCGUGGCGACUUUCUCUGAGGCCCACAGAGAAUCAGGUAACAUUGCAUGGAAUUCUCGGGUGCCAA: 2.44

Sample 4 — technique: universal PBM; form: double-stranded DNA, one strand shown; medium: in vitro; concentration: not given; reading: higher = stronger binding; measurement: E-score
Target: Sal-like protein 4, full length isoform B (SALL4, Homo sapiens, UniProt Q9UJQ4-2, residues 1-616)
Notes: 8-mer, flanks averaged, mean of replicates
CGCCAACA: -0.0549
CTGTCAAG: -0.0786
TCTCTGCA: -0.0871
CCTTGAAA: 0.0733
AGGTACTC: 0.0358
AGTTAAAC: 0.09
AAGGTGCG: -0.202
ACGGCGCC: -0.269
AGCGGTCG: -0.288
CAGTTGTC: -0.0292
TAGACGAA: 0.176
GTTGACAA: 0.148
ACCGTGGC: -0.255
GTGTACCA: 0.047
ATGTACGG: 0.0673
CTCACACA: -0.0151
CTAGTAGA: 0.134
CTGCTGCC: -0.233
GAGCCGGC: -0.24
ACGCTCAA: -0.0823
CGGAACAG: -0.177
ACAATCAT: 0.243
GAAATTTC: -0.0587
CATCTCCA: -0.0532
ACCATGAA: 0.00867

Sample 5 — target: CCNA1, cyclin fold, Cln2 fusion (human); technique: yeast growth competition, sequencing; medium: yeast; notes: weak parent motif; reference: not given; reading: higher = stronger binding; measurement: normalised enrichment score
Starting sequence: CDC6 docking peptide (human); TLKGRRLVFDNQL; partner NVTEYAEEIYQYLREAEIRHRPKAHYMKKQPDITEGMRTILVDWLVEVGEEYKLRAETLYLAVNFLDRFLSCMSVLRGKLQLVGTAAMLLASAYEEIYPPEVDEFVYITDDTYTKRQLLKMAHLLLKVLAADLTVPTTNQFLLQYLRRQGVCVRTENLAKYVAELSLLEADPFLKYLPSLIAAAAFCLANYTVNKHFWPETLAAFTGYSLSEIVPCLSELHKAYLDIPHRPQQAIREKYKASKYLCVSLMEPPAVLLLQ
TLKGRRLVFDNGL [Q12G]: 0.512
TLKGRMLVFDNQL [R6M]: 0.562
TLGGRRLVFDNQL [K3G]: 0.115
TLKGRILVFDNQL [R6I]: 0.0285
TLKGRRLVFDNTL [Q12T]: 0.196
TLKGSRLVFDNQL [R5S]: 0.00309
TLKGRRLVFDNNL [Q12N]: 0.136
TKKGRRLVFDNQL [L2K]: 0.47
TLKGRRLDFDNQL [V8D]: 0.318
TLPGRRLVFDNQL [K3P]: 0.458
TLKMRRLVFDNQL [G4M]: 0.345
TLKGRRLCFDNQL [V8C]: 0.579
TLKGRRLVFCNQL [D10C]: 0.605
TLKGRRLVFDDQL [N11D]: 0.189
TLAGRRLVFDNQL [K3A]: 0.0966
TLKGRRHVFDNQL [L7H]: 0.329
TWKGRRLVFDNQL [L2W]: 0.155
TLKGDRLVFDNQL [R5D]: -0.0495
TLKGWRLVFDNQL [R5W]: -0.0175

A few entries again (sample 3):
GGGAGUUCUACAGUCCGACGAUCUCUAGCUUUCUCACAGAAUGAGGACACUGGACUAAAUGAUUGCCCAGUUUCCAGCUAGUCCUAGAGUUCUAUAUUUCUACAUAGUUGAAUUAUUUUAUCAUGCGGUUGCUUGGAAUUCUCGGGUGCCAA: 0.825
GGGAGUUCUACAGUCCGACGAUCUCAGUCUGCUGUGCCUCCAGACUGCAGAGCUCUCAGAACCCAGAACAGAGACGAAAAGGCUACCUCUCCUACCCAAGUUAAGUGUUCAAAGGGGAUGUGAGGGCCUCCACUGGAAUUCUCGGGUGCCAA: 0.406
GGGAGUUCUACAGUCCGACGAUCGUGUGGGUCACUGUGAGGUGACUGCAUGGUGCCUGGCCCUGGCACAGCUGGUGACUUCCCUUGUAGAGUGUUUGCGUAGUGGAGUGGCUGUGGCUCACCACCCCCUUUCCUGGAAUUCUCGGGUGCCAA: 0.995
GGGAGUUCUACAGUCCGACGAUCGAAAGGGGAGUACUCUUGUACAGCCAGUUCUUUUAUGCAAAAAUCUAUGCAUUUUUACAAUCUUAUAUUAAACUGGUAUUUUCAAACAAUAGGAAACUUUUUUUUUUUUUUGGAAUUCUCGGGUGCCAA: 0.612
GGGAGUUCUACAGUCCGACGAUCGCCAACUCCCAGAGUUGACCUGUGUCACACCAGAUAACCAACUGCACUGCUGAAGUUUUCACAAGUGGAGUGUUGAAGGUGAAUCAGUAGUCUUUGGAGUCUACAAGUGAUGGAAUUCUCGGGUGCCAA: 0.249
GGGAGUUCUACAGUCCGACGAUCUAAACUUUCUUGCAUCAGUAUUCUAAAUUGAGCAAACUGAAAGAUUUUCAUCAGGAAAGGAGCACUGUGGGAAGAGCCCAGUAUUCACAUUUUUUCCCCAUUUUUCAGAAUGGAAUUCUCGGGUGCCAA: 0.657
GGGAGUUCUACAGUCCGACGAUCUGUCUUAAGCAACAGCCCCAAAUGCUGGCUGCCCCCAGCCAAGCAUUGGGGCCGCCAUCCUGCCUGGCACUGGCUGAUGGGCACCUCUGUUGGUUCCAUCAGCCAGAGCUUGGAAUUCUCGGGUGCCAA: 0.155
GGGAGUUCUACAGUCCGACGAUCUCUGCAAGAUUUUGUUCUUUGAAUUUCUUGAUAUUGUAAUUGAUUAUUGAUAACUGUCAUCAUGAAAUUAUCUCUCAAUAAUAAGAUAAAUAAACUAGCAUAUGAAUCAUUGGAAUUCUCGGGUGCCAA: 0.846
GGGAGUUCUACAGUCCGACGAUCGGUGGGCAUUUUAAAUAAUUAUUUAAAAGACAGGAAGUAAGCGGUACCGAGCAAUGAAACUGAAGGUACAGCACUGGGCGUCUGGGGACCCCACGCUCUCCCAACGCCCAUGGAAUUCUCGGGUGCCAA: 0.495
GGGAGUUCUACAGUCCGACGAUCUCUUGUCUAAUAUUCGUCUAUAAGGGAUUAAUUUUCAGACCCUUUAAUAAGUGAGUGCCAUAAGAAAGUCAAUAUAUAUUGUUUAAAAGAUAUUUCAGUCUAGGAAAGAUUGGAAUUCUCGGGUGCCAA: 0.676
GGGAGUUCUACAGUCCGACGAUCGGUCCUCCACCCCUCAGCGACACCCACCGCCCGAGAAACUACAGACAAUGGCCACAAGUUUGGCGUCCUUCAAUUUAAUUCUUUAAAGAAGUGCUGGGAAGAAAAAGCUAUGGAAUUCUCGGGUGCCAA: 0.465
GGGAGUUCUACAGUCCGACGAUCUGUCUGCUGUGUUUUCUUACGAAAAGAGUUUCGUUCUGCCAGUGCUGUGAGUUGGGAAUUCCUGCGUGGCGACUUUCUCUGAGGCCCACAGAGAAUCAGGUAACAUUGCAUGGAAUUCUCGGGUGCCAA: 2.44
